Published values from different studies.
Each numbered part is a random draw from the data of one study; scales do not carry over between parts.

Block 1
Target: Sal-like protein 4, full length isoform B (SALL4, Homo sapiens, UniProt Q9UJQ4-2, residues 1-616)
Method: universal PBM
Molecule type: double-stranded DNA, one strand shown
Medium: in vitro
Tested at: not given
Notes: 8-mer, flanks averaged, mean of replicates
Direction: higher = stronger binding
Residues (chain): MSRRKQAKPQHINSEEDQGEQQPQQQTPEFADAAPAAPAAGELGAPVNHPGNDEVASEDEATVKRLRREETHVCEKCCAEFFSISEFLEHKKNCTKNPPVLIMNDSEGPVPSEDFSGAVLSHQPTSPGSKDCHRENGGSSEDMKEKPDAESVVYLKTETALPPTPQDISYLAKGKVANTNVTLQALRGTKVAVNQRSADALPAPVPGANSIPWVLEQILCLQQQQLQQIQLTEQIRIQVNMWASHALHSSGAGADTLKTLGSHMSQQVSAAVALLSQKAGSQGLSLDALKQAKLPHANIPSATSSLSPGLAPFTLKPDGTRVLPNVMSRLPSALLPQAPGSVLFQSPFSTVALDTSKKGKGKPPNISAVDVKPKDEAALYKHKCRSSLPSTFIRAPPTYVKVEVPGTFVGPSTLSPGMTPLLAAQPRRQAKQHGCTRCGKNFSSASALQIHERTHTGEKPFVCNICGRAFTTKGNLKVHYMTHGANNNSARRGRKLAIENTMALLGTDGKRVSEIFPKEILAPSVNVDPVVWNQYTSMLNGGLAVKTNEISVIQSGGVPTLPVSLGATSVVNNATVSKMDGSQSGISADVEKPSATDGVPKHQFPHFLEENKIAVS
Strand	E-score
ATTTACAC	0.166
ACCCAGCT	-0.28
GGGAGTTA	-0.017
ACGGTTCT	-0.137
AGCTTCCA	-0.119
AACTGCAG	-0.112
AAAGGGGT	-0.0276
ATTTCCGC	0.0267
CAGGTGGA	-0.22
CGGCGAGC	-0.315
GACAATAA	0.299
TCGTGACA	0.0341
AGGCTGAG	-0.184
CCACGCCC	-0.31
CCGAGTGA	-0.121
CGCGAGCC	-0.311
ATACCTAG	0.14
CTCCTACC	-0.0841
ATGCTTGG	0.124
CTGACGCC	-0.237
AGTTTACA	0.135
GTACCAGA	0.0405

Block 2
Target: Ras GTPase-activating protein-binding protein 1, full length (G3BP1, Homo sapiens, UniProt Q13283)
Chain of UniProt Q13283 (whole entry, looked up): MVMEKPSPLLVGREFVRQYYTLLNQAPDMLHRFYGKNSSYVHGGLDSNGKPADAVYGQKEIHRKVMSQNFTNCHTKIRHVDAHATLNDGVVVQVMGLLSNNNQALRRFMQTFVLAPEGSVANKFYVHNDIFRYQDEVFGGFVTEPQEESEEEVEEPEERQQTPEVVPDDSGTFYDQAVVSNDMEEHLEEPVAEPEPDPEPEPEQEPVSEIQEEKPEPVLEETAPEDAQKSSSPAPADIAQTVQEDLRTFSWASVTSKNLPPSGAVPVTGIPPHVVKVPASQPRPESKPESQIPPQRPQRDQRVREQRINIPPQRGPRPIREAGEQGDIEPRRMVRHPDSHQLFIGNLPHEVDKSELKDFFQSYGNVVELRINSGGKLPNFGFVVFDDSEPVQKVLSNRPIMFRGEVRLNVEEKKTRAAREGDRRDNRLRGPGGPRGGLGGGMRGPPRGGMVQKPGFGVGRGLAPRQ
Method: RNA Bind-n-Seq
Molecule type: RNA
Medium: in vitro
Tested at: 200 nM
Notes: whole 134-nt RNA, ends assumed
With: 150 mM KCl
Relative to: input library
Direction: higher = stronger binding
Constant ends, left off below: GGGAGUUCUACAGUCCGACGAUC … UGGAAUUCUCGGGUGUCAAGG
Strand	log2 enrichment
CUGUGCUACACAUCGUAUGUACCGAAUCGGGGAAAAAAAGGGAAAAAAAGGGGAAAAAAAGGAAAGUAUUAUGUUACGCCGUUCGGAUCU	-0.678
CAAGUCCUGUGCUACACAUCGUAUGUACCGAAUCGGGGAAAGGGAAAGGGGAAAGGAAAGUAUUAUGUUACGCCGUUCGGAUCUGCACUU	-0.117
UGGCCCUGGUGACAUGCGGGGAGGAAGAGGUGGCCUCAUGGAUCGUGGUGGUCCCGGUGGAAUGUUCAGAGGUGGCCGUGGUGGAGACAG	0.184
GCUCGCCCGAGCUCAGAGGUGAUCAAAGACGCCAACUUGUACAUCAGCGGGCUCCCGCGGACCAUGACCCAGAAGGACGUAGAAGACAUG	-0.422
UGGCCCUGGUGGCAUGCGGGGAGGAAGAGGUGGCCUCAUGGAUCGUGGUGGUCCCGGUGGAAUGUUCAGAGGUGGCCGUGGUUGAGACAG	0.0475
CAAGUCCUGUGCUACACAUCGUAUGUACCGAAUCGGGAAAAAAAGGGAGGGUGGGAAAGUAUUAUGUUACGCCGUUCGGAUCUGCACUUC	0.462
ACCAUGCAGGUGGGCAUCUUUGGGAAAAAGGGCAAGGGGGGGAUAGGGAGGGGGGUAACACUUUGGGAACAGGUGGUCCCAGGUCGUUUC	1.22
AAGUCCUGUGCUACACAUCGUAUGUACCGAAUCGGGAAAAGGGAAAAGGAAAAGGGGAAAGUAUUAUGUUACGCCGUUCGGAUCUGCACU	-0.357
UUUCCAGCAGUACCAGCUCCAGCCAGGAUCACCCUCUCUACUCUGGGCACCCAUCCCUUCCACUAAGUGGUGCUAUUGCUGCUUUUGCCU	0.453
UCCUGUGCUACACAUCGUAUGUACCGAAUCGGGGUGGGGAAAAAAAGGGGAAAAAGGGGAAAGUAUUAUGUUACGCCGUUCGGAUCUGCA	0.682

Block 3
Target: RNA binding protein fox-1 homolog 2, RRM domain, GST-SBP tag (RBFOX2, Homo sapiens, UniProt O43251-10, residues 100-194)
Method: RNA Bind-n-Seq
Molecule type: RNA
Medium: in vitro
Tested at: 365 nM
Notes: natural RNA segment, single round, ends assumed
Relative to: no-protein control
Direction: higher = stronger binding
Constant ends, left off below: GGGAGUUCUACAGUCCGACGAUC … UGGAAUUCUCGGGUGCCAA
Target sequence (chain): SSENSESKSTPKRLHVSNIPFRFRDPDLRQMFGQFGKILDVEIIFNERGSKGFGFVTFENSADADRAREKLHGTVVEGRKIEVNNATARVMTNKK
Strand	RBNS enrichment (R)
CUCUGAUCGGGGAGGCAUCUGAUGGUGGCACCAUGGAGAACCUCAGCCGGAGACUCAAGGUCACUGGAGACCUGUUUGACAUCAUGUCGGGCCAGACCGAUGUGGAUCAC	0.609
UCUGCAAGGGAAUUCUUGUGUGCUGCUUUCCAUUUGACACCGCAGUUCUGUUCAGCCAUCAGAAGAGAGACAAGGAAUUAAAAAUUUCUUUUUAAUCCUGUUACCAAAUA	0.326
UGAAAGCUGCUGAACUCGGCAUGGCGCCUCCUCUUCUCUGUUGGGAUGAGUGACUUUAUUGAUUUGAGCAGCAUAUGCUGUGAUUGGCUGCCCUGCAAAUUUGUUUCCCU	0.544
GAAGCCCUUUCUAGGAGGUUGUGUCGGCCCCAGCAGGGGCUCUCAGCUUCUCCCCAUCCAGAAACCCGAUGUGUGAGUCCCUCAUCACACACGCACACACACACACACAC	0.822
UUGUUUGCACAUUAUUAUGGAACACUUUCCUACUUAGGCAGUUACUCUUCCAUGUUUAUACUUGGCCUCUUCUGCAAGAGGAAUCUCUUGAAAACAGGGGCACACAGAAA	0.306
AGAAGAGGAUCUAUGUGCUGACCUCAGAAGAUGUAUAUGUUUACAUAAUUUAAUACAGAUUGAUGUUAAUACUUGUGUAUUUACAUAACCGUUUCCUUCUUGUCACUGAA	0.396
UUCCUCCCUGUCUCUGCAUCUGACUCUCUUUUGAGGUCCCUGUAUGUCUACCUCUGACUUCUGUGGUCCCUCUGUGUCUGCUCUCAUCCAUUCCUCUUACUGGGGCCUGG	0.673
UCUCACUGCUUUUUGUCUGAAACACAGAGUUGAUUUCCGAGAAUGAUUGGGAAGAAAAGAAAUGGAUUUUUAUACACAUACACCAAAAAUAUUUUAAUGAUUCACUUGCC	1.1
UGUUUACCUAUAUUUCUGGAGGCUCCUGUAUUCUAGAACCCAAUCUCUCACCUGCUUGGUUGCAAGGCUCAUAUUUUUUUGUACCUUUCCUAUAGAUUCUGUAGCAUUUG	0.936
AAGAACUGCUUCAUAAAAUAUGUAUUAAGUAUUGUAUUUCCCUCUUAGCAGUUGAAUCCAAACCAGUUUCAUUUAGCUGGAAGUAGACAGGAAGGAGCUGCCUUAAGCAC	0.455
CUGAAUAUAGGAAGCAUAUACUUAAUUGUAACUUCUUAUGUUUAAAGGAAAAUUCUCAGUGUGAUAUACAGAUAUAUUUAAUUGUGUCAUAUUAAACCUUCUGAUUUCAU	0.336
UUGUCGCUGUAUUAAGUGCAGUUUUCUUGGAGCCAUAACAACUGUUAAUGCUUAGGAAGCCCAUUUGCAAACACUCAGUGAAGAGACACUUAAGUUUAAAAUAAAGCUUU	0.208

Block 4
Target: Histone acetyltransferase KAT6A, both winged helices, GST fusion (KAT6A, Homo sapiens, UniProt Q92794, residues 1-181)
Method: protein binding microarray
Molecule type: double-stranded DNA, one strand shown
Medium: in vitro
Tested at: not given
Notes: 8-mer, flanks averaged, mean of 2 arrays, mostly near background
Relative to: not given
Direction: higher = stronger binding
Construct (chain): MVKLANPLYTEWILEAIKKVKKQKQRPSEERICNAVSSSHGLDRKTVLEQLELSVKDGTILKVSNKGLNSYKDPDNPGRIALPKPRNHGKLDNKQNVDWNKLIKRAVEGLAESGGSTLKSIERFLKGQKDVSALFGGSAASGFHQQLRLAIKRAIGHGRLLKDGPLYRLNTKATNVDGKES
Strand	E-score
CGGATATA	0.198
CTCCCCCC	-0.207
AACGTCTT	-0.115
CATAACAC	-0.173
GCGACTAC	-0.00204
ACTTACCC	0.00069
AATGAACT	-0.0518
CGCTGCAC	0.243
TCACTGCA	-0.0886
CACGAGGG	-0.156
TTTGAAAA	-0.0417
AGAGGTGC	-0.138
CATAATCA	-0.0187
CTGACCTC	-0.102
GACTAGTC	-0.152
CGGCCGTC	0.376
